Measurements collected from several papers.
Parts stem from different laboratories: compare values within a part only. Several values in a cell are separate wells, animals, samples, runs or records.
UniProt Q08345, sequence (whole entry, looked up): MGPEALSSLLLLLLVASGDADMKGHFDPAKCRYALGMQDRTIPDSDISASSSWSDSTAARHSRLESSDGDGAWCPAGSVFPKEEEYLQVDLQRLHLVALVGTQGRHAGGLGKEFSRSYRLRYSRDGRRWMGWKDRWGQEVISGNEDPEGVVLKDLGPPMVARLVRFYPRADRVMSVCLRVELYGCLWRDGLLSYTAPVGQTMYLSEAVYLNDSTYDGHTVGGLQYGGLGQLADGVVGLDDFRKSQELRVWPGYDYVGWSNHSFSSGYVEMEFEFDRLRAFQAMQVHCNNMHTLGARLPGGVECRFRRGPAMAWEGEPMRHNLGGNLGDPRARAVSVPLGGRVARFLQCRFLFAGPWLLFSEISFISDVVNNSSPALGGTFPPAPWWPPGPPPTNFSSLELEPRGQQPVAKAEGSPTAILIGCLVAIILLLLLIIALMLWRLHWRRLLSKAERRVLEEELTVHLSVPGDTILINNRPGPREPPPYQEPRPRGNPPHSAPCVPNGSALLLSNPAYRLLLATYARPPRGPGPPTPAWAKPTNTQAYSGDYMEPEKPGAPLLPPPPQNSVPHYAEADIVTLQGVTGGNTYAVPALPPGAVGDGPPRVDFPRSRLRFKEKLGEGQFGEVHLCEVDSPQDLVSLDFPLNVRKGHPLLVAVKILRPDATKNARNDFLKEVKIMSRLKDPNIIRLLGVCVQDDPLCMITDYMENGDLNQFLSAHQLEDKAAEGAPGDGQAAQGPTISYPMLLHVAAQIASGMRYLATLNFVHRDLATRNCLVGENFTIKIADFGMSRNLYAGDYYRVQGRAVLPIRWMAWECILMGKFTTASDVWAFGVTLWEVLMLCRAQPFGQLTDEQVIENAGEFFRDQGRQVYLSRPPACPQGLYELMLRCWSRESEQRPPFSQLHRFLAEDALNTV
UniProt P16234, sequence (whole entry, looked up): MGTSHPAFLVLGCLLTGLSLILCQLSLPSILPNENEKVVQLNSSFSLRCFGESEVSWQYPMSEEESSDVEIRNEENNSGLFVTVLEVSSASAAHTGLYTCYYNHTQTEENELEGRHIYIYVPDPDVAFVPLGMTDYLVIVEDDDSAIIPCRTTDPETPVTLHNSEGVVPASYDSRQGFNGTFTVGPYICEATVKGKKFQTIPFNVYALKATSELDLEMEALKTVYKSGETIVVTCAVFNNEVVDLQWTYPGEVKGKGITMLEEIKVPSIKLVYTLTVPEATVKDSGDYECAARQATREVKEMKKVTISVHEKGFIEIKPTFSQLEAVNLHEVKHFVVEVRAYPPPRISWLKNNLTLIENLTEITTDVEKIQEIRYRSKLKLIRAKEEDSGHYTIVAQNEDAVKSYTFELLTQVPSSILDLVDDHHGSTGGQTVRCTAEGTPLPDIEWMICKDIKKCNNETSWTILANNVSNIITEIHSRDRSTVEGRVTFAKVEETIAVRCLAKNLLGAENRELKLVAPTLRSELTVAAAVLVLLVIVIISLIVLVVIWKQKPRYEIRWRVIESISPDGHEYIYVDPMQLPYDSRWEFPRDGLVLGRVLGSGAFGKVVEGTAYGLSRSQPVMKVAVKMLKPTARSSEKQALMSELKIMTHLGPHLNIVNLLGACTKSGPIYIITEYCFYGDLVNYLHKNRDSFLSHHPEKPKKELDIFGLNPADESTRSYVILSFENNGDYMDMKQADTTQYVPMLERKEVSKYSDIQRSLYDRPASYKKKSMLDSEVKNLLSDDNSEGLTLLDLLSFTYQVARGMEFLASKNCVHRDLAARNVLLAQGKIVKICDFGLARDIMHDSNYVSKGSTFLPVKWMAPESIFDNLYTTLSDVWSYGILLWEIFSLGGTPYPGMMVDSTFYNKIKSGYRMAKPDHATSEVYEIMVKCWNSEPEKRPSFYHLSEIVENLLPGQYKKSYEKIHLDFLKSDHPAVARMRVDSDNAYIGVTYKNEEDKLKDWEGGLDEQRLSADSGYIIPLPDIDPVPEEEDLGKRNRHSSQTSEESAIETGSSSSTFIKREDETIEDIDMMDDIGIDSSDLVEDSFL
UniProt O75747, sequence (whole entry, looked up): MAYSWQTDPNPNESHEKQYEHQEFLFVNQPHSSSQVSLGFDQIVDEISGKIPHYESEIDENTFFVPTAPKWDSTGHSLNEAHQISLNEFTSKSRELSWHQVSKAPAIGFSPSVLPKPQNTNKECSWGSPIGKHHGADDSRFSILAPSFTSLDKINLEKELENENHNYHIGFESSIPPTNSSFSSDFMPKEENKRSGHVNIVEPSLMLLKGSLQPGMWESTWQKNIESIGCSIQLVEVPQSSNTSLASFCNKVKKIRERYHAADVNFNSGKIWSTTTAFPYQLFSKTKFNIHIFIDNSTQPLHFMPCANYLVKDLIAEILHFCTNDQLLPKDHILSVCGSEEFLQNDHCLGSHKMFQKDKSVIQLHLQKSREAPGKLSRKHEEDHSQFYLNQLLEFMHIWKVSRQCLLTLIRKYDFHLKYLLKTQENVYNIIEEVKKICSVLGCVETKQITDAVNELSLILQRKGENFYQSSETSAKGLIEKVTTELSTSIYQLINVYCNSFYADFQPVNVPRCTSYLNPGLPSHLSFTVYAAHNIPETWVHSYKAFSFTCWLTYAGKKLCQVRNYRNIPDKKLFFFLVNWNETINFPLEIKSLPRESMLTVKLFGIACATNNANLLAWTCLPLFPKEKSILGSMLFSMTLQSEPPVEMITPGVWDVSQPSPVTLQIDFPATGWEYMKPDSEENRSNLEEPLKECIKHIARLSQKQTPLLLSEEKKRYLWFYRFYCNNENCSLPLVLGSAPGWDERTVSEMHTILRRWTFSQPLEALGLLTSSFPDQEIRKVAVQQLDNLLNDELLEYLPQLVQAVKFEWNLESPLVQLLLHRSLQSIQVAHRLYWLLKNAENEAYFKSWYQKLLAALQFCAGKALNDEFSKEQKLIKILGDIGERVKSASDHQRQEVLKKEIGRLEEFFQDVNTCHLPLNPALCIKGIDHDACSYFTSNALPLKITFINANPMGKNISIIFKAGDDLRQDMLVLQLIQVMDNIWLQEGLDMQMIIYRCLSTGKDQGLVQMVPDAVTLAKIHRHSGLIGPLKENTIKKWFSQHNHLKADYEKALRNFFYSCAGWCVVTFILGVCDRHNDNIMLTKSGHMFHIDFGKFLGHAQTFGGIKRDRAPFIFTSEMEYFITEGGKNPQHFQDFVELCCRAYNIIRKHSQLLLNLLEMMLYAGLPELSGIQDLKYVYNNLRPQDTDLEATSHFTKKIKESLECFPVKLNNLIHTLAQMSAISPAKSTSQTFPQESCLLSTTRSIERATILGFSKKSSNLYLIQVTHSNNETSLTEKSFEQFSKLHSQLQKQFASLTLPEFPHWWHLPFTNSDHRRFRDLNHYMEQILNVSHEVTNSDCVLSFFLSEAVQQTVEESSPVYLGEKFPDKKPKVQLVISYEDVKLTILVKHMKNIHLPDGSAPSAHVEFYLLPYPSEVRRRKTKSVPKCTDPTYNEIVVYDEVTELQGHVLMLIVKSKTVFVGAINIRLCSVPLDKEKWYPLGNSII
UniProt P10721, sequence (whole entry, unmodified, looked up): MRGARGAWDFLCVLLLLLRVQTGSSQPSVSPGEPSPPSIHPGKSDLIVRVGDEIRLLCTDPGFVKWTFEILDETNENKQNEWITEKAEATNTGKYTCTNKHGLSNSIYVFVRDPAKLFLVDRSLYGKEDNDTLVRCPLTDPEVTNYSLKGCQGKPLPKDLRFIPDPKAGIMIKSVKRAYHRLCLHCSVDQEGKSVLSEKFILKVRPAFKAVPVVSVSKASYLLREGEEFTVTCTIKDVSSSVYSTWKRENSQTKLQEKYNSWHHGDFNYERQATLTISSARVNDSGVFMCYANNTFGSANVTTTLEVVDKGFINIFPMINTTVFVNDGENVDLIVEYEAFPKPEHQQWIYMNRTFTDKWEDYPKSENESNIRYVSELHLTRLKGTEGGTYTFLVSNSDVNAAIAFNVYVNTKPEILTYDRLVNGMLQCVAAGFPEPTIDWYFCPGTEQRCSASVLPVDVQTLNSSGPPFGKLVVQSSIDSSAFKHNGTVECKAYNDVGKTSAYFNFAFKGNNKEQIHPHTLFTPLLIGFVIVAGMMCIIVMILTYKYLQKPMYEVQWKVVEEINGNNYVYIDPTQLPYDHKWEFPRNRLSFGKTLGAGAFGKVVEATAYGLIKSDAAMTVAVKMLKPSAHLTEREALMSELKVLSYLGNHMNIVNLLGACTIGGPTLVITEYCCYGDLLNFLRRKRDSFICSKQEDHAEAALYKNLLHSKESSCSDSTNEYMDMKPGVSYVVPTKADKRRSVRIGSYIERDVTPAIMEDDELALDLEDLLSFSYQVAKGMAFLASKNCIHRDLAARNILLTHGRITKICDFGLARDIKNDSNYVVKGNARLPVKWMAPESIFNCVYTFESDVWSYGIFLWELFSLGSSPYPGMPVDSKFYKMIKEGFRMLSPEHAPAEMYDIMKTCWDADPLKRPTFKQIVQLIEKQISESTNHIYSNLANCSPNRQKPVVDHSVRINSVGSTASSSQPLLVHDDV

Series 1
SMILES: Cc1noc([C@H]2C[C@@H](c3ccc(C(F)(F)F)cc3)CN(C(=O)N3CCS(=O)(=O)C3)C2)n1
Observed: cell-free assay
Technique: competition with immobilised ligand
Tested at: 1 µM
| target | remaining binding |
| --- | --- |
| KIT (Homo sapiens, UniProt P10721, V559D/V654A) | 100% |
| PIK3C2G (Homo sapiens, UniProt O75747) | 90% |
| MET (Homo sapiens, UniProt P08581) | 100% |
| PDGFRA (Homo sapiens, UniProt P16234) | 100% |
| DDR1 (Homo sapiens, UniProt Q08345) | 100% |
| MAP3K20 (Homo sapiens, UniProt Q9NYL2) | 87% |

Series 2
Organism: Sarcocystis neurona
Observed: parasite growth
Tested at: 10 µM
Time: 96 h
Setting: second screen
Relative to: untreated
| SMILES | log2 fold change |
| --- | --- |
| NS(=O)(=O)c1cc(C2(O)NC(=O)c3ccccc32)ccc1Cl (centres unmarked) | 0.21 |
| C[C@](N)(Cc1ccc(O)c(O)c1)C(=O)O | 0.22 |
| CCCCNC(=O)NS(=O)(=O)c1ccc(C)cc1 | 0.31 |
| COc1cc(C)c(Cc2cnc(N)nc2N)cc1OC | -0.87 |

Series 3
Target: Serine/threonine-protein kinase N1 (PKN1, Homo sapiens, UniProt Q16512)
Observed: enzyme activity
Action: inhibitor
Tested at: 0.5 µM
Relative to: control
| Structure (SMILES) | remaining activity |
| --- | --- |
| CCOC(=O)c1c(C)[nH]c(/C=C2\C(=O)Nc3ccccc32)c1C | 89.6% |
| CNC(=O)c1cc(Oc2ccc(NC(=O)Nc3ccc(Cl)c(C(F)(F)F)c3)cc2)ccn1 | 106% |
| Cc1nc(-c2ccccc2)c(-c2ccncc2)o1 | 101% |
| COc1ccc(C(=O)Nc2sc3c(c2C(N)=O)CCCC3)cc1OC | 96.3% |
| CN(C)c1ccc(C=C2C(=O)Nc3ccccc32)cc1 | 98.4% |
| NCCNc1ncc(C(N)=O)c(Nc2cccc(C(F)(F)F)c2)n1 | 101% |
| COc1ccc(CNC(=O)Nc2ncc([N+](=O)[O-])s2)cc1 | 94.3% |
| CC(C)[C@H](CO)Nc1nc(Nc2cc(N)cc(Cl)c2)c2ncn(C(C)C)c2n1 | 93.3% |
| Cn1c2ccccc2c2c3c(c4c5ccccc5n(CCC#N)c4c21)CNC3=O | 10.3% |
| N#CC(C#N)=C(N)/C(C#N)=C/c1ccc(O)cc1 | 89% |
| O=C(CCCc1ccc(-c2ccccc2F)cc1)Nc1ccc(O)cc1 | 105% |
| Nc1ncnc2n[nH]c(Nc3ccc(F)cc3)c12 | 102% |
| Nc1[nH]nc2nc3ccccc3nc12 | 92% |

Further values, each from its own experiment
| Substance | target or system | test | test system | conditions | endpoint | result |
| --- | --- | --- | --- | --- | --- | --- |
| ADH5 (Homo sapiens, UniProt P11766) | ANK3 (Homo sapiens, UniProt Q12955) | cross-linking MS | cell fractions | with: DMTMM | cross-linked residues | K373 to D2575 |
| CC(C)n1cnc(-c2ccc(F)cc2)c1-c1ncc(C(=O)Nc2ccc(N3CCN(C)CC3)cc2)[nH]1 | – | – | IPF patients | 30 mg once daily, adverse event incidence | blood pressure increased | 0% |
| LCP1 (Homo sapiens, UniProt P13796) | ABCF3 (Homo sapiens, UniProt Q9NUQ8) | cross-linking MS | cell fractions | with: DMTMM | cross-linked residues | K294 to D57 |
| COc1cc(C(=O)OCCCN2CCCN(CCCOC(=O)c3cc(OC)c(OC)c(OC)c3)CC2)cc(OC)c1OC | – | von Frey test | mouse, STZ diabetic neuropathy | subcutaneous, 30 mg/kg, second of three doses, 0 h | paw withdrawal frequency | 0.03 fraction of stimuli and 0.08 fraction of stimuli and 0.13 fraction of stimuli |
| GYS1 (Homo sapiens, UniProt P13807) | DDX5 (Homo sapiens, UniProt P17844) | cross-linking MS | cell fractions | with: DSSO | cross-linked residues | T395 to K470 |
| SF3B1 (Homo sapiens, UniProt O75533) | SPRTN (Homo sapiens, UniProt Q9H040) | cross-linking MS | cell fractions | with: DSSO | cross-linked residues | K175 to T263 |

For quick reference, copied from above (series 3):
| Structure (SMILES) | remaining activity |
| --- | --- |
| CN(C)c1ccc(C=C2C(=O)Nc3ccccc32)cc1 | 98.4% |
| CNC(=O)c1cc(Oc2ccc(NC(=O)Nc3ccc(Cl)c(C(F)(F)F)c3)cc2)ccn1 | 106% |
| Cn1c2ccccc2c2c3c(c4c5ccccc5n(CCC#N)c4c21)CNC3=O | 10.3% |
| COc1ccc(C(=O)Nc2sc3c(c2C(N)=O)CCCC3)cc1OC | 96.3% |
